Results of several laboratories.
A part holds a random share of what one study measured.

Set 1
Target: Centromere-binding protein 1, full length, N-terminal tag (CBF1, Saccharomyces cerevisiae, UniProt P17106, residues 1-351)
UniProt P17106, sequence (whole entry, looked up): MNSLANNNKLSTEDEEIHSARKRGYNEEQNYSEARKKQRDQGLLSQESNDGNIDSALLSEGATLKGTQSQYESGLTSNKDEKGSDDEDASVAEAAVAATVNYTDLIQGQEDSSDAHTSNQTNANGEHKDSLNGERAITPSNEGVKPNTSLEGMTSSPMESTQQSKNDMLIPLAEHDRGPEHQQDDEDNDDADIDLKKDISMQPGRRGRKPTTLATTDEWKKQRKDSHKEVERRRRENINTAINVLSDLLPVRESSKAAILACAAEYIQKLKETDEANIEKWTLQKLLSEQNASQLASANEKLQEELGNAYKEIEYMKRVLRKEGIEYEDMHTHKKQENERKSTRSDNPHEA
Technique: protein-binding microarray
Molecule type: double-stranded DNA, one strand shown
Medium: in vitro
Tested at: 0.8 µM
Notes: whole 60-bp probe, no competitor
Reading: higher = stronger binding
Constant ends, left off below: … GTCTTGATTCGCTTGACGCTGCTG
| Oligonucleotide | fluorescence intensity |
| --- | --- |
| CTACTTCTTCATCGTGATGAGGTTGGCTATGATTTC | 553 a.u. |
| GAAAAAAAGGTTTGTCACGAGCACCTAACTACTTAG | 1310 a.u. |
| CTAACAAGCATCTTTAGCGTGCCCTTAGGGCCCTTC | 477 a.u. |
| CTATAAAGCCTAAAGCGCGTGGTTCTTACGAAATTC | 538 a.u. |
| GAACATGAATATACTCACCTGTATACGTAGCAATAG | 586 a.u. |
| CCTAACTACTATAGCCACGACCGATAGCTTCGTACA | 519 a.u. |
| GAACGTGCCCTTCATCAGATTACATCACGTGAATAG | 14700 a.u. |
| GAAACATCGAGCCACGTGACCATATATGAGAAATAG | 18800 a.u. |
| CTATGACGCATTTGCAGCATCAGGATTGTTTACTTC | 510 a.u. |
| CCTAACTACTATATACACACGCAATAGCTTCGTACA | 521 a.u. |
| CTAATTCCTCTATGGCGTGTGATGTCTGTATCTTTC | 574 a.u. |
| GAAGACATTACTATGATCATGATTTACGATGACTAG | 551 a.u. |
| CTAGTCAGAAAAAGAAACGTGCACCCGCCCGTCTTC | 596 a.u. |
| CTAACACTAATGTGTCACCAAACAAACAAACGATTC | 564 a.u. |
| GAAGTCAAGGCTTTCCACGAGACGTTCGAATATTAG | 558 a.u. |
| GAATATTTTTATCATCACCATCATTTTGAAATCTAG | 547 a.u. |

Set 2
Target: RNA binding protein fox-1 homolog 2, RRM domain, GST-SBP tag (RBFOX2, Homo sapiens, UniProt O43251-10, residues 100-194)
Technique: RNA Bind-n-Seq
Molecule type: RNA
Medium: in vitro
Tested at: 365 nM
Notes: natural RNA segment, single round, ends assumed
Relative to: no-protein control
Reading: higher = stronger binding
Constant ends, left off below: GGGAGUUCUACAGUCCGACGAUC … UGGAAUUCUCGGGUGCCAA
Residues (chain): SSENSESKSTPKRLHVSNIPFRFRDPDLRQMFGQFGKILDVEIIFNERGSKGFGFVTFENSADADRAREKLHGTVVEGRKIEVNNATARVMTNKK
| Oligonucleotide | RBNS enrichment (R) |
| --- | --- |
| CCCCAAUCGAUGCUCUCAGGGUCAUCUCGGGGAUCACAGGGAUCCUUAAAUCUCCAUUCUGUUUGUGGUUGCCCCCUCAACCUCCCCUACACCCUUCCUAUUCUUUUUCA | 0.304 |
| UUUUGUUGCACUGAAGUUUGAUAAAUAGUGUUAUUGAGAGAGAUGUGUAAUUUUUCUGUAUAGACAGGAGAAGAAAGAACUAUCUUCAUCUGAGAGAGGCUAAAAUGUUU | 0.419 |
| UUCAUGCUUUGGGUCAGGAGGCCAAAGCUGAUGUUCAGGCCCCACCCACUCCCUACAGUCCUCAGACCAAGGAGGGGUUUGGGUAGUAGGCCCGAGCUGCAUUGCCGGCC | 0.418 |
| UGGGCACUUCCCAGGCUCAAUGCUCAGCCAGAGUUUGCUGGUGGACCUCAGGAUUCGAAGUGUGCAACAGACGGAGUGCGCUUGCUGUUCAGGGCGGCCCCGUGCAGGAG | 0.785 |
| UGCCCUGUGCAUGAGGUCCCCUGAAGCCGCAAUACAUGACCACCCUUCUACUACUUGCUAUUACCUCCUUGUAUGAGAAAUGGAUUAAACUUCUAUGCCUAUGGUUGGUC | 3.55 |
| UUAUGUGUUGGGUGACCACAAAAUCAACAGUAACUGAGAGAAACGAAUUCAUUUUGUAAAUAAUGUUCAACGUUAAGAAUACCUAUAUUCCUUUUGUAGAUGAGUAUGAU | 0.916 |
| AUCCUUUCGGACGACUACUUGGAGCCAUAAGUAACCUCAGCAAAAACGAGGCCUCUGCAAGCCACUUUUCCAUGCCAAGCAUCCACCCGGCCCACAGGCAUGUUUCUGCC | 0.267 |
| GGGUAUCGGGGUGCGAGGUCUGUCUGCACCGGCCCCCACAUCUAACCAGGCCCUGAUGUAGGGGUCGUCCGCUCAGGCUGCCCCCUUGGGCUCUUGCAGCUCUUGUUCAG | 0.301 |
| UGGUAACGGGGAUCACAUGCUCCAUGGUGCGCACGAUCCUGUGGUGUGAAGAGCAGGUCUGCUUUACCUUUCUUGCCAGGUUCAAACUGUGUUUUUAAAUGGAAGGGAUU | 0.929 |
| GGGCCUUGAGCACUGGGGAGCUCUCAAGGUAUACUCUUAGAGUAACUAUAUACCUGUAACUGGACCUGGAGAUGAAGAGAUACCCUCAUUGCUCUGUGUCUGACCCAAUA | 0.527 |
| UAAAAUUUUAGGACCGAUUUCAGAAAUAGUCAAAGGAGCAACAGAACAUUCAUUGUAUUUUGGUCUUGAGAAAUGCCUAUAGUUUUCCAAAUUAUUCUUGUACAGUUUUA | 1.07 |
| AAAAGAAAAAAAUAUCCCAAGCCCACACCUAUGCCUCAGAAAGUCAGCAUGUGUCCUGAAGACGUUCAUAGAUUUAUAGGAAAUAAAGCCAAAUGUAGCUCAUACCUCUU | 12 |

Set 3
Target: Histone acetyltransferase KAT6A, both winged helices, GST fusion (KAT6A, Homo sapiens, UniProt Q92794, residues 1-181)
Technique: protein binding microarray
Molecule type: double-stranded DNA, one strand shown
Medium: in vitro
Tested at: not given
Notes: 8-mer, flanks averaged, mean of 2 arrays, mostly near background
Relative to: not given
Reading: higher = stronger binding
Target sequence (chain): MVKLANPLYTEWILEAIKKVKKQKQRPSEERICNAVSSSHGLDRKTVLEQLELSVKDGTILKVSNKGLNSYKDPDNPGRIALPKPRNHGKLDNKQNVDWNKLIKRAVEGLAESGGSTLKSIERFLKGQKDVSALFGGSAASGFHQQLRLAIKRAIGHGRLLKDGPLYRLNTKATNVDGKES
| Oligonucleotide | E-score |
| --- | --- |
| TGCAGGAA | -0.126 |
| ACAGCTCC | -0.146 |
| CCTGCGAC | -0.0174 |
| AGGTTTTA | -0.0144 |
| AGCCCCTA | -0.31 |
| AAACGTAA | 0.0094 |
| AGAGAACG | -0.0798 |
| ACAGGTTC | -0.116 |
| ACTTGTTA | -0.0855 |
| GGACCAAC | 0.0462 |
| ATTCCGGC | 0.15 |
| CAACGCAC | 0.124 |
| TTAGCCAA | -0.0457 |
| AATTGAAA | -0.106 |
| ATTAGGAC | -0.115 |
| GTACATCA | 0.0931 |
| ACGGGGGC | 0.0992 |

Set 4
Target: RING finger protein unkempt homolog, zinc fingers 1-6, GST-SBP tag (UNK, Homo sapiens, UniProt Q9C0B0, residues 30-357)
Technique: RNA Bind-n-Seq
Molecule type: RNA
Medium: in vitro
Tested at: not given
Notes: RNA with constant flanks, human-mouse chimeric sites, ends assumed
Relative to: input RNA pool
Reading: higher = stronger binding
Constant ends, left off below: GGGAGUUCUACAGUCCGACGAUC … CAACAGAGGAUUGAGCAUCA
Residues (chain): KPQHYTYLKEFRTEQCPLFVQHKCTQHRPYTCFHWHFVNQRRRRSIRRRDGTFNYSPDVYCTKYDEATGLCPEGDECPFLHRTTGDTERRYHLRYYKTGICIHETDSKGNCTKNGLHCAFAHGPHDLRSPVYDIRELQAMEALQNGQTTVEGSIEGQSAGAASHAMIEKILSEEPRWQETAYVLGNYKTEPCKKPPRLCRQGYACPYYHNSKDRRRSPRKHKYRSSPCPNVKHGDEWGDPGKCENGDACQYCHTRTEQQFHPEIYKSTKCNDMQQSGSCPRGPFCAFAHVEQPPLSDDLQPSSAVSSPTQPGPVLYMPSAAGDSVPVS
| Oligonucleotide | bound/input enrichment [ratio] |
| --- | --- |
| CUAGCAGUCCAGCAGCUAGAAGGAGCCUUGAGACAAAGCCUGGAAAUACAGGGAAGGCGAUAACAUUGUACAUUGGUUUACAUUUUUUCCCCCUGUGGAUUUUUCUAGAGGUCAUAGUGC | 0.488 |
| AUGGUUGUGUCUCUUGAGAUCUAAAAACAAGAUGACUUUUCCUGGCACAUAUUUCAAAGCAAAGACUUUGUUGCCUGCUGCUUAUUGUCUAAUUUACAGGGAUAUUUAAUUUUGUCAGGU | 0.216 |
| CACACACUCUUCUGCGGCACCCUCAUUUUGCAGGCCCGGGCCUAUGUGGGACCGCACGUCCUGGCAGUGGUGACUCGCACAGGGUUCUGCACGGCAAAAGGGGGCCUGGUGAGCUCCAUC | 0.169 |
| CAACAGAGUCUAGGAUGGGUUCAUUACAUGAUUCAUGAGCCAGAACCACAUAUUCUUCUCUUUAGACGACCUCUUCCAAAAGAACAACAAAAAUGAAGUGCAGCUGGGGAUCGUCAAUCU | 0.444 |
| CUGGCCUGGCCCUCCCCAGGGGCCUCCUUUCGUAUAGUCACUGCUUCUGCAUCAGAUACUUUCAGCUCCAAGUCCUGACUGGGUGGGGCACCCAUUUCAGGCAGAAGUUGGUGCCCCCCU | 0.2 |
| CAGACUGUGUCAUACUUUUUAGACAUUCACAUCAGACUUACAGAGCAUUGGGCCUCUUUCUAGGUUUGUGUUAUUUCUCAGCUAUGGAUAUGAUCAAAUGAGAACACUGCUUAACUAAUG | 1.07 |
| GAGUCGAGCAAACUUGAAACAAUUCGUUAUCUUGCAGAGCUUCGGUGCACUUGCUUGGCGAUAGCAUUGGGGUUUUAUAUAGAUUCUAAGGAGAACUGACGAUGAUGCUGCCGCUGCUGC | 0.206 |
| GAUCAUGAACCACCAUCAGAAAUGAAGGAUGAGACUACCAGACGAGCCAAAACAGCUGCGCUACAGAAAAAGUAAACUAACCUUGCAGAGUUCCUUAAUGAAGAUACAAGUUAAGAGAGC | 0.225 |
| CCUGCUCAGAUCACCAUGAAAGUAAUCCAAGGCCUAUAUAGUGGGGUCACCACAGUGGAACUAGAUACUUUGGCUGCUGAGACAGCCGCGACCUUGACCACGAAGCACCCUGACUAUGCC | 0.164 |
| UAAAUUAGGGCUGCCGUCCGUUCUCACUCCCUGGGCUGCGGAAAGCCAGAAGAUUUUAUCUAGCUUAUACAAGGCUGCUGGUGUUCCCUCCCUCCCGCCACGAGGGUGUUUUUGGCUGCA | 0.437 |
| GUAGCUGGGACUACAGAAAUGCUGGUAGUGCUCCGGCCUUGCUGAUGACUUCUGAUGUCCCAGCAAAUGUUGGCAUUGUUGACUGCUGAGAAGAUACACUCGCAAGGCCACGUCUAAGGU | 0.0784 |

Set 5
Target: Hepatocyte nuclear factor 3-beta, forkhead domain (FOXA2, Homo sapiens, UniProt Q9Y261, residues 142-269)
Technique: protein-binding microarray
Molecule type: double-stranded DNA, one strand shown
Medium: in vitro
Tested at: not given
Notes: k-mer, scored over probes, only values ≥0.25
Reading: higher = stronger binding
Target sequence (chain): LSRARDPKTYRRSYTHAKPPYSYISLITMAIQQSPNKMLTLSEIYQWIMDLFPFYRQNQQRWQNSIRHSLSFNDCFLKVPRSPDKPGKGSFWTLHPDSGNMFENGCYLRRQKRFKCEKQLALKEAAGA
| Oligonucleotide | E-score |
| --- | --- |
| ATTATTAC | 0.272 |
| CATAGATA | 0.287 |
| CCTTGTAA | 0.275 |
| ACATCACT | 0.276 |
| AATTATTA | 0.292 |
| AACAATTC | 0.251 |
| ACATGTAT | 0.345 |
| AATTAATA | 0.338 |
| AACTAACA | 0.288 |
| TAAGCTAA | 0.257 |
| ATAGTACC | 0.28 |
| AAATAATT | 0.31 |
| CTACACCA | 0.315 |
| ACATAATG | 0.318 |
| AATATACC | 0.32 |
| AACTATAT | 0.346 |
| AATACTGT | 0.26 |
| CAAATAAC | 0.348 |

Repeated from above (set 5):
| Oligonucleotide | E-score |
| --- | --- |
| CATAGATA | 0.287 |
| CTACACCA | 0.315 |
| ATTATTAC | 0.272 |
| AACTAACA | 0.288 |
| ACATAATG | 0.318 |
| ATAGTACC | 0.28 |
| TAAGCTAA | 0.257 |
| AATTATTA | 0.292 |
| AATATACC | 0.32 |
